Measurements pooled from the literature.
Each line is one published result; not all experiments were run side by side. ± gives the spread as reported.
BCHE: Cholinesterase (BCHE, Homo sapiens, UniProt P06276)
Sequence of UniProt P06276 (whole entry, looked up): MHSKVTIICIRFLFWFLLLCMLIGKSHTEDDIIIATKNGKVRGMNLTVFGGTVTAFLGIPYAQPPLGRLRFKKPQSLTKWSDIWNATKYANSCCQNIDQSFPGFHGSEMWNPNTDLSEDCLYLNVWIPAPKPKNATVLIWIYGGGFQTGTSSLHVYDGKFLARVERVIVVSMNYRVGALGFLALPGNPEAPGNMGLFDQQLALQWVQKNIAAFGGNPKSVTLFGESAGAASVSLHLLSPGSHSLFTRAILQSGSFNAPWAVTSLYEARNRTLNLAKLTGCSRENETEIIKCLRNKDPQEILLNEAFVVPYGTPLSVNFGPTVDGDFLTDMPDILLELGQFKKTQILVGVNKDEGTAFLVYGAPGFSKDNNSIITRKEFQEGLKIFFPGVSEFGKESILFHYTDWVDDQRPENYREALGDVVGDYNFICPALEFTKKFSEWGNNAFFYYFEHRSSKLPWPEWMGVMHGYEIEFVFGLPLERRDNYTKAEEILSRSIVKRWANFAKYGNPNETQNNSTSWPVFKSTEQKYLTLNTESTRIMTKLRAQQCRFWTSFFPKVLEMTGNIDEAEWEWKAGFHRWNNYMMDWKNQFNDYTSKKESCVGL
STAT1 SH2 domain: Signal transducer and activator of transcription 1-alpha/beta, SH2 domain (STAT1, Homo sapiens, UniProt P42224)
Sequence of UniProt P42224 (whole entry, looked up): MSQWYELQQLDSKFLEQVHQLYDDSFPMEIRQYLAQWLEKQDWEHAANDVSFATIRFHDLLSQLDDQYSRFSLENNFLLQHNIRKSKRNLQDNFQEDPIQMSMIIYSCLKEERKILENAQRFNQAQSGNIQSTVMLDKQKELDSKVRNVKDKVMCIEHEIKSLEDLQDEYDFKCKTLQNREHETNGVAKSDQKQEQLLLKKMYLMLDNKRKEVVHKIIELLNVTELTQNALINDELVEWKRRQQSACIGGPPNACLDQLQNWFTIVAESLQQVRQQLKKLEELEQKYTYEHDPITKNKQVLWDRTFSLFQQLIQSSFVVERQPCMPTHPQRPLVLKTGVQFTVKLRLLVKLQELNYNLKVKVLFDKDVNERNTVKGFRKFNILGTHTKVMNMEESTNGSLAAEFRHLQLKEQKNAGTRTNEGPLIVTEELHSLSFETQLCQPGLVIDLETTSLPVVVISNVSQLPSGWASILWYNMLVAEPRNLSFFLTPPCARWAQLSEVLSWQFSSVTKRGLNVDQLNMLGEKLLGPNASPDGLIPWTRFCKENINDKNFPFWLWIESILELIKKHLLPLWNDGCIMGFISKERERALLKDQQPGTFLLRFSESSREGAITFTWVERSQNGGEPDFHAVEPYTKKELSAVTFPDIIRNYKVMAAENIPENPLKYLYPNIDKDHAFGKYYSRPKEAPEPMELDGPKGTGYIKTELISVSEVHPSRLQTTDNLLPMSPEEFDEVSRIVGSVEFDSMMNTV
Sequence of UniProt Q6IN85 (whole entry, looked up): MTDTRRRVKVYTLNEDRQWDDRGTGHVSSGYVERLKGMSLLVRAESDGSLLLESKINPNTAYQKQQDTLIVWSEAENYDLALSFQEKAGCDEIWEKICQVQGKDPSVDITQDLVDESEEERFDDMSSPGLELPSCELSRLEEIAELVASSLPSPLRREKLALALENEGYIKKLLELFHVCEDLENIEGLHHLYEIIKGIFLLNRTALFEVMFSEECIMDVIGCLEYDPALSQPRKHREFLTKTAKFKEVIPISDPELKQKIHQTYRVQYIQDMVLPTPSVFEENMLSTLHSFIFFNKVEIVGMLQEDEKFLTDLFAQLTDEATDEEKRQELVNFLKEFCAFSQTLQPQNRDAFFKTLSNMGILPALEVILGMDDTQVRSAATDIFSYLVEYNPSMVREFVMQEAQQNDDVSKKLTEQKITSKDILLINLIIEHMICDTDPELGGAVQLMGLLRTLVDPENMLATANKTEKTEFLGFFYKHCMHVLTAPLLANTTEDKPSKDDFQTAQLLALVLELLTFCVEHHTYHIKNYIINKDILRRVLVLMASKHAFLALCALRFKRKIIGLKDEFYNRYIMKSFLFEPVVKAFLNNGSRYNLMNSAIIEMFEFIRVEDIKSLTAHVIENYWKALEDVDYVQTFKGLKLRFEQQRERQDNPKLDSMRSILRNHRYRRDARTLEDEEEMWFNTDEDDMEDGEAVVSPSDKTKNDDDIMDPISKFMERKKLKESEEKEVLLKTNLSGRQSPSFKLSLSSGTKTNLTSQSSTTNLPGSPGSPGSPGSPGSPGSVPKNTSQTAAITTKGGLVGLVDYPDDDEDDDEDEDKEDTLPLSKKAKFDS
Sequence of UniProt P0CAW0 (whole entry, looked up): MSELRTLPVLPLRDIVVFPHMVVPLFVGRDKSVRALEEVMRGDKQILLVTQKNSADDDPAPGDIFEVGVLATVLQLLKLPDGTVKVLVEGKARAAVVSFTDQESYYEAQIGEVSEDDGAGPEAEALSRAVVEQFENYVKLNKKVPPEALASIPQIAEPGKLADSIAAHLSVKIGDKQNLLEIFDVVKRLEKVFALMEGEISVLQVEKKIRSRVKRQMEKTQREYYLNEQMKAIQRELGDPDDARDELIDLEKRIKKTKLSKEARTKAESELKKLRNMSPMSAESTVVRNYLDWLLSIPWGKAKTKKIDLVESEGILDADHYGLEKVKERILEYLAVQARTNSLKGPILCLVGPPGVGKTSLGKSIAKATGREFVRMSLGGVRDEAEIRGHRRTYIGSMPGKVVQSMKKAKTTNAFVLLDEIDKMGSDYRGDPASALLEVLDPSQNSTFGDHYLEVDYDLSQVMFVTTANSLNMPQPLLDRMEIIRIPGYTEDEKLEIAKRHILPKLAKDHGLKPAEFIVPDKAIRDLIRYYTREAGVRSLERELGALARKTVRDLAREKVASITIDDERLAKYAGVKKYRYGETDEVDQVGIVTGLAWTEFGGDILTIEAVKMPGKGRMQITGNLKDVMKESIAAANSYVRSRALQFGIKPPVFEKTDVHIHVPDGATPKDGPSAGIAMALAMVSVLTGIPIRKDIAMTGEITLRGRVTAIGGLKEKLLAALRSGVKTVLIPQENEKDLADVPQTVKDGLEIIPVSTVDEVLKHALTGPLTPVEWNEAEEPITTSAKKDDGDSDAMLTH
Sequence of UniProt Q9Y5T5 (whole entry, looked up): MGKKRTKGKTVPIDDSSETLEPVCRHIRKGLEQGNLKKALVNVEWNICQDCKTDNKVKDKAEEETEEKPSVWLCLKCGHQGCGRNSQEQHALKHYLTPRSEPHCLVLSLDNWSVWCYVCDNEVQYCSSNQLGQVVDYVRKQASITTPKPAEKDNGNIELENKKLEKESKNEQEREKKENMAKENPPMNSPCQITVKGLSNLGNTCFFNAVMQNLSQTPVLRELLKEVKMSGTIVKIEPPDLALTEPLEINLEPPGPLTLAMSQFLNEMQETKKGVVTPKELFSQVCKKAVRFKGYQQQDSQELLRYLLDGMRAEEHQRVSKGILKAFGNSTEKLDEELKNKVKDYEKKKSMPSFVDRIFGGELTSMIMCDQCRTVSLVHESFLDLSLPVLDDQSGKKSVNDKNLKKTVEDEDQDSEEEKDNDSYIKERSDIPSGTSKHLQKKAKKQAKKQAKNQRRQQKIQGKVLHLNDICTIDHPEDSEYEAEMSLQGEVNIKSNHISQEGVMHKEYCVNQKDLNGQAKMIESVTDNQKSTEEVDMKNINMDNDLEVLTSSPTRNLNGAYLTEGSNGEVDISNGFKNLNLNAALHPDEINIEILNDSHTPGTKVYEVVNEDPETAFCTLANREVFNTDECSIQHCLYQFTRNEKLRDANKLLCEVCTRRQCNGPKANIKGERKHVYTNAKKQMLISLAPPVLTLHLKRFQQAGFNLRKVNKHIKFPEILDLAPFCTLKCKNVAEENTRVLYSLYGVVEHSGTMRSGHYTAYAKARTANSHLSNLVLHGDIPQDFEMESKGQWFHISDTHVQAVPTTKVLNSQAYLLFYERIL
Sequence of UniProt P00519 (whole entry, looked up): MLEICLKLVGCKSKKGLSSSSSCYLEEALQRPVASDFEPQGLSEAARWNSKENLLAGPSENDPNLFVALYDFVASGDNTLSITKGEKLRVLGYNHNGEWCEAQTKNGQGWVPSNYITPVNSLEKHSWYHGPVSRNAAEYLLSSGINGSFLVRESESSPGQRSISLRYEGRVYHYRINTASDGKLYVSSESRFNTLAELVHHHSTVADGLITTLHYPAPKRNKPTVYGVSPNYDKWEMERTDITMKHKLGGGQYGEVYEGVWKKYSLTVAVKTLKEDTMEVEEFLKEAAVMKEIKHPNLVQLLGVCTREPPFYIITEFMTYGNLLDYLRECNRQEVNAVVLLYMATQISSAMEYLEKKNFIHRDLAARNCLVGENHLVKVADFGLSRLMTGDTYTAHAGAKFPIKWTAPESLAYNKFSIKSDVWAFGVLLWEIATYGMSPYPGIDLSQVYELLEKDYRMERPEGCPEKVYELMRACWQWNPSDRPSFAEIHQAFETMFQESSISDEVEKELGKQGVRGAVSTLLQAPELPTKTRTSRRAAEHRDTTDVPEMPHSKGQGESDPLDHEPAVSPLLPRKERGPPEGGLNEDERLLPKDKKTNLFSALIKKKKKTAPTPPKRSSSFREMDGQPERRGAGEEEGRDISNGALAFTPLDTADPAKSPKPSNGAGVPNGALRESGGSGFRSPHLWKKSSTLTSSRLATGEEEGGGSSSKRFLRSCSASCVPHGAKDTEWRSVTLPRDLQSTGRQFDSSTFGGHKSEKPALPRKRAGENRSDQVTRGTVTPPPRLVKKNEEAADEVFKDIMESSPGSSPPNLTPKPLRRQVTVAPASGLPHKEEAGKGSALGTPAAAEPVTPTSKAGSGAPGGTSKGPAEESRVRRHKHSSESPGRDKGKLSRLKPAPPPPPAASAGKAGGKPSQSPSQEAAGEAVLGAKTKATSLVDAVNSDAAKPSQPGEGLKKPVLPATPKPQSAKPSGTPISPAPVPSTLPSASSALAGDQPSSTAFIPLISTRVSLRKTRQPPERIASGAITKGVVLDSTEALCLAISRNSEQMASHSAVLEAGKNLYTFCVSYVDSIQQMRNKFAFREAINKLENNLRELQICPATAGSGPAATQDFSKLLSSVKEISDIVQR
Sequence of UniProt Q9NWS0 (51-180, unmodified, looked up): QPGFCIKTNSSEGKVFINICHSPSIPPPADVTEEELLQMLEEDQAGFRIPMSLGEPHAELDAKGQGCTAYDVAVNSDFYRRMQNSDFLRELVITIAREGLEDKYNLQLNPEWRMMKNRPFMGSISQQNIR

CC[C@H](C)[C@H](NC(=O)[C@H](Cc1ccc(OP(=O)(O)O)cc1)NC(=O)[C@H](CCC(=O)O)NC(=O)[C@@H]1CCCN1C(=O)[C@@H](NC(=O)[C@@H]1CCCN1C(=O)[C@H](CC(C)C)NC(=O)[C@H](Cc1ccccc1)NC(=O)[C@@H](NC(=O)[C@H](CC(=O)O)NC(=O)[C@H](CC(=O)O)NC(=O)c1ccc2c(c1)C(=O)OC21c2ccc(N(C)C)cc2Oc2cc(N(C)C)ccc21)[C@@H](C)O)C(C)C)C(=O)N[C@@H](CC(N)=O)C(=O)N[C@@H](CCC(N)=O)C(=O)N[C@@H](CO)C(=O)N[C@H](C(=O)N1CCC[C@H]1C(=O)N[C@@H](CCCCN)C(=O)N[C@@H](CC(=O)O)C(=O)O)C(C)C  Kd (Ras GTPase-activating protein 1, SH2 domains (RASA1, Homo sapiens, UniProt P20936); binding): 0.18 µM
CC[C@H](CO)Nc1nc(NCc2ccc(-c3ccccn3)cc2)c2ncn(C(C)C)c2n1  Kd (CABLES1, human; affinity chromatography competition; SH-SY5Y cell extract): 3.45 µM
CN1C2CCCC1CC(NC(=O)c1nn(C)c3ccccc13)C2 (centres unmarked)  Kd (Soluble acetylcholine receptor (Aplysia californica, UniProt Q8WSF8, D181E/K160T/Q74R/S111E/V159L); homologous radioligand competition): 0.359 ± 0.013 µM
CC[C@H]1CN2CC[C@H]1C[C@H]2[C@H](O)c1ccnc2ccc(OC)cc12  IC50 (BCHE; inhibitor): 10.3 ± 3.01 µM
CSCC[C@H](NC(=O)[C@H](Cc1ccc(OP(=O)(O)O)cc1)NC(=O)CNC(=O)CNC(=O)[C@H](CC(=O)O)NC(=O)[C@H](CO)NC(=O)[C@H](CCC(=O)O)NC(=O)CNC(=O)[C@@H](NC(=O)[C@H](CC(C)C)NC(=O)[C@H](CO)NC(=O)c1ccc2c(c1)C(=O)OC21c2ccc(N(C)C)cc2Oc2cc(N(C)C)ccc21)[C@@H](C)O)C(=O)N[C@@H](CC(=O)O)C(=O)N[C@@H](CCSC)C(=O)N[C@@H](CO)C(=O)N[C@@H](CCCCN)C(=O)N[C@@H](CC(=O)O)C(=O)N[C@@H](CCC(=O)O)C(=O)N[C@@H](CC(=O)O)C(=O)O  Kd (STAT1 SH2 domain; binding): 1.36 µM
O=C(O)CNC(=O)c1cccnc1  Kd (Ubiquitin carboxyl-terminal hydrolase 16, ZnF-UBD domain (USP16, Homo sapiens, UniProt Q9Y5T5)): 198 µM
N=C(N)NC(N)=O  Kd (Gdx-Clo, Clostridiales oral taxon 876; tryptophan fluorescence titration, ITC; pH-independent fit): 70 µM
CN(CC(=O)O)C(=N)NP(=O)(O)O  Kd (CKMT1A (Homo sapiens, UniProt P12532, E265Q); microscale thermophoresis; pH 7.0, E227Q mutant, no substrate): 227 ± 68 µM
FC(F)(F)c1ccccc1/C=N/N1CCN(Cc2ccccc2)CC1  IC50 (Gag-Pol polyprotein, integrase (gag-pol, Human immunodeficiency virus 1, UniProt P12497); strand transfer activity, inhibitor; wild-type integrase): > 100 µM
CN1CCc2cc(Cl)c(O)cc2[C@@H](c2cccc3c2OCC3)C1  IC50 (BCHE; enzyme activity, inhibitor; Triton): 3.87 ± 1.97 µM
CC(C)C[C@H](NC(=O)[C@@H](N)CC(=O)O)C(=O)N[C@@H](CC(=O)O)C(=O)N[C@@H](COP(=O)(O)O)C(=O)N[C@@H](CC(=O)O)C(=O)N[C@@H](CC(=O)O)C(=O)N[C@@H](CCC(=O)O)C(=O)N[C@@H](Cc1ccc(O)cc1)C(=O)O  Kd (PIH1 domain-containing protein 1, residues 51-180 (PIH1D1, Homo sapiens, UniProt Q9NWS0, R168A); ITC; 20 °C, mutant protein): > 112 µM
CC(C)C[C@H](NC(=O)[C@H](CCC(=O)O)NC(=O)[C@H](Cc1c[nH]cn1)NC(=S)Nc1ccc2c(c1)C(=O)OC21c2ccc(O)cc2Oc2cc(O)ccc21)C(=O)N[C@@H](C)C(=O)N1CCC[C@H]1C(=O)N[C@H](C(=O)N[C@@H](CO)C(=O)N[C@H](C(=O)N[C@@H](Cc1c[nH]cn1)C(=O)O)C(C)C)C(C)C  Kd (Lon protease, N-terminal domain (1-206) (lon, Caulobacter vibrioides, UniProt P0CAW0); binding, fluorescence polarisation; with: FITC-labelled degron peptide): 101 µM
CC[C@H](C)[C@H](NC(=O)[C@H](Cc1c[nH]c2ccccc12)NC(=O)[C@H](C)NC(=O)[C@H](C)NC(=O)[C@H](Cc1ccc(O)cc1)NC(=O)[C@@H](N)CO)C(=O)N[C@@H](CC(=O)O)C(=O)N[C@H](C(=O)N[C@@H](CCC(=O)O)C(=O)N[C@@H](CC(=O)O)C(=O)N[C@@H](CC(C)C)C(=O)O)C(C)C  Kd (Serine protease HTRA1, PDZ domain (Homo sapiens, UniProt Q92743); isothermal titration calorimetry; isolated PDZ domain; pH 8.0): 80 µM
CC[C@H](C)[C@H](NC(=O)[C@H](CC(=O)O)NC(=O)[C@H](C)NC(=O)[C@H](Cc1ccc(O)cc1)NC(=O)[C@H](CCCCN)NC(=O)c1ccc2c(c1)C(=O)OC21c2ccc(N(C)C)cc2Oc2cc(N(C)C)ccc21)C(=O)N[C@@H](CCC(=O)O)C(=O)N[C@@H](CO)C(=O)N[C@@H](CO)C(=O)N[C@@H](CC(N)=O)C(=O)N[C@@H](Cc1ccc(OP(=O)(O)O)cc1)C(=O)N[C@@H](CCSC)C(=O)N[C@@H](C)C(=O)N1CCC[C@H]1C(=O)N[C@@H](Cc1ccc(O)cc1)C(=O)N[C@@H](CC(=O)O)C(=O)N[C@@H](CC(N)=O)C(=O)N[C@@H](Cc1ccc(O)cc1)C(=O)N[C@@H](CC(=O)O)C(=O)O  Kd (Tyrosine-protein kinase ABL1, SH2 domain (ABL1, Homo sapiens, UniProt P00519); binding): 0.432 µM
NC(=O)N/N=C/c1ccc([N+](=O)[O-])o1  Kd (nfsB (Escherichia coli K-12, UniProt P38489, K14E); binding; Escherichia coli): 35 ± 2 µM
CSCC[C@H](NC(=O)[C@H](CC(=O)O)NC(=O)c1ccc2c(c1)C(=O)OC21c2ccc(N(C)C)cc2Oc2cc(N(C)C)ccc21)C(=O)N[C@@H](CO)C(=O)N[C@@H](CCCCN)C(=O)N[C@@H](CC(=O)O)C(=O)N[C@@H](CCC(=O)O)C(=O)N[C@@H](CO)C(=O)N[C@H](C(=O)N[C@@H](CC(=O)O)C(=O)N[C@@H](Cc1ccc(OP(=O)(O)O)cc1)C(=O)N[C@H](C(=O)N1CCC[C@H]1C(=O)N[C@@H](CCSC)C(=O)N[C@@H](CC(C)C)C(=O)N[C@@H](CC(=O)O)C(=O)N[C@@H](CCSC)C(=O)N[C@@H](CCCCN)C(=O)N[C@@H](CC(=O)O)C(=O)O)C(C)C)C(C)C  Kd (STAT1 SH2 domain; binding): 0.433 µM
CC(C)[C@H](N)C(=O)N1CCC[C@H]1C(=O)N[C@@H](COP(=O)(O)O)C(=O)N[C@@H](CCC(N)=O)C(=O)N[C@@H](CO)C(=O)N[C@@H](Cc1ccccc1)C(=O)N1CCC[C@H]1C(=O)N[C@@H](C)C(=O)N1CCC[C@H]1C(=O)N[C@@H](CCCNC(=N)N)C(=O)N[C@@H](COP(=O)(O)O)C(=O)N[C@@H](CCC(N)=O)C(=O)N[C@@H](CCC(N)=O)C(=O)N[C@@H](CCCNC(=N)N)C(=O)N[C@@H](Cc1c[nH]c2ccccc12)C(=O)O  Kd (Serine/threonine-protein phosphatase 4 regulatory subunit 3A, EVH1 domain (Homo sapiens, UniProt Q6IN85); isothermal titration calorimetry; sodium phosphate buffer; pH 7.5, with: CYB5R4 peptide): 229 ± 11 µM

Some of these lines once more:
CN(CC(=O)O)C(=N)NP(=O)(O)O  Kd (CKMT1A (Homo sapiens, UniProt P12532, E265Q); microscale thermophoresis; pH 7.0, E227Q mutant, no substrate): 227 ± 68 µM
CC[C@H](C)[C@H](NC(=O)[C@H](Cc1ccc(OP(=O)(O)O)cc1)NC(=O)[C@H](CCC(=O)O)NC(=O)[C@@H]1CCCN1C(=O)[C@@H](NC(=O)[C@@H]1CCCN1C(=O)[C@H](CC(C)C)NC(=O)[C@H](Cc1ccccc1)NC(=O)[C@@H](NC(=O)[C@H](CC(=O)O)NC(=O)[C@H](CC(=O)O)NC(=O)c1ccc2c(c1)C(=O)OC21c2ccc(N(C)C)cc2Oc2cc(N(C)C)ccc21)[C@@H](C)O)C(C)C)C(=O)N[C@@H](CC(N)=O)C(=O)N[C@@H](CCC(N)=O)C(=O)N[C@@H](CO)C(=O)N[C@H](C(=O)N1CCC[C@H]1C(=O)N[C@@H](CCCCN)C(=O)N[C@@H](CC(=O)O)C(=O)O)C(C)C  Kd (Ras GTPase-activating protein 1, SH2 domains (RASA1, Homo sapiens, UniProt P20936); binding): 0.18 µM
